{"data": "Published values pooled from the literature", "organism": "Candida albicans", "note": "Compare with care: the assays were run in different laboratories. Numbers after ± are the reported error."}
{"Molecule": "Cc1cc(C)n(C(N)=S)n1.Cc1ccc(C(C)C)cc1.[Cl][Ru][Cl]", "test": "broth microdilution", "test system": "ATCC 10231", "setting": "24 to 48 h, 37 °C", "MIC [µg/mL]": 250}
{"Molecule": "CCOC(=O)c1c(N)csc1-c1cn(-c2ccccc2)nc1-c1ccc(C)cc1", "test": "broth microdilution", "test system": "clinical urinary isolate", "setting": "compound gamma-irradiated 15 kGy", "MIC [µg/mL]": "0.125 ± 0.4"}
{"Molecule": "CCc1nc(N)nc(N)c1C#CC(C)c1ccc(-c2ccc(C)cc2)cc1OC (stereo not shown)", "test": "microbial growth, resazurin", "test system": "SC5314", "MIC [µg/mL]": "1.8 to 7.5"}
{"Molecule": "pneumocandin B0", "test": "broth microdilution, resazurin", "test system": "ATCC 90028", "setting": "24 h, 35 °C", "MIC [µg/mL]": 1.6}
{"Molecule": "C/C(=N\\NC(=N)N)c1cccc(/C(C)=N/NC(=N)N)c1.Cl.Cl", "test system": "seven strains", "MIC [µg/mL]": "≥ 31.3"}
{"Molecule": "CCc1nc(N)nc(N)c1C#CC(C)c1ccc(-c2ccc(F)cc2)cc1OC (stereo not shown)", "test": "microbial growth, resazurin", "test system": "SC5314", "MIC [µg/mL]": "1.8 to 7.5"}
{"Molecule": "pneumocandin H", "test": "broth microdilution, resazurin", "test system": "ATCC 10231", "setting": "24 h, 35 °C", "MIC [µg/mL]": 0.8}
{"Molecule": "Cl.N=C(N)N/N=C/c1ccc(-c2ccc(/C=N/Nc3ccc(F)cc3F)cc2)cc1", "test system": "seven strains", "MIC [µg/mL]": "1 to 3.9"}
{"Molecule": "pneumocandin A0", "test": "broth microdilution, resazurin", "test system": "ATCC 90028", "setting": "24 h, 35 °C", "MIC [µg/mL]": 0.8}
{"Molecule": "C[C@@H]1[C@H](O)[C@@H](C)/C=C/C=C/C=C/C=C/C=C/C=C/C=C/[C@H](O[C@@H]2O[C@H](C)[C@@H](O)[C@H](N)[C@@H]2O)C[C@@H]2O[C@](O)(C[C@@H](O)C[C@@H](O)[C@H](O)CC[C@@H](O)C[C@@H](O)CC(=O)O[C@H]1C)C[C@H](O)[C@H]2C(=O)O", "test system": "seven strains", "MIC [µg/mL]": "2 to 3.9"}
{"note": "Some of these lines once more:"}
{"Molecule": "pneumocandin B0", "test": "broth microdilution, resazurin", "test system": "ATCC 90028", "setting": "24 h, 35 °C", "MIC [µg/mL]": 1.6}
